# Measurements of several laboratories.
# Every numbered part comes from another study and shows a few of its results, in no order. “And” joins repeats or separate records; there may be more than shown.
# Chain of UniProt P10721 (whole entry, looked up): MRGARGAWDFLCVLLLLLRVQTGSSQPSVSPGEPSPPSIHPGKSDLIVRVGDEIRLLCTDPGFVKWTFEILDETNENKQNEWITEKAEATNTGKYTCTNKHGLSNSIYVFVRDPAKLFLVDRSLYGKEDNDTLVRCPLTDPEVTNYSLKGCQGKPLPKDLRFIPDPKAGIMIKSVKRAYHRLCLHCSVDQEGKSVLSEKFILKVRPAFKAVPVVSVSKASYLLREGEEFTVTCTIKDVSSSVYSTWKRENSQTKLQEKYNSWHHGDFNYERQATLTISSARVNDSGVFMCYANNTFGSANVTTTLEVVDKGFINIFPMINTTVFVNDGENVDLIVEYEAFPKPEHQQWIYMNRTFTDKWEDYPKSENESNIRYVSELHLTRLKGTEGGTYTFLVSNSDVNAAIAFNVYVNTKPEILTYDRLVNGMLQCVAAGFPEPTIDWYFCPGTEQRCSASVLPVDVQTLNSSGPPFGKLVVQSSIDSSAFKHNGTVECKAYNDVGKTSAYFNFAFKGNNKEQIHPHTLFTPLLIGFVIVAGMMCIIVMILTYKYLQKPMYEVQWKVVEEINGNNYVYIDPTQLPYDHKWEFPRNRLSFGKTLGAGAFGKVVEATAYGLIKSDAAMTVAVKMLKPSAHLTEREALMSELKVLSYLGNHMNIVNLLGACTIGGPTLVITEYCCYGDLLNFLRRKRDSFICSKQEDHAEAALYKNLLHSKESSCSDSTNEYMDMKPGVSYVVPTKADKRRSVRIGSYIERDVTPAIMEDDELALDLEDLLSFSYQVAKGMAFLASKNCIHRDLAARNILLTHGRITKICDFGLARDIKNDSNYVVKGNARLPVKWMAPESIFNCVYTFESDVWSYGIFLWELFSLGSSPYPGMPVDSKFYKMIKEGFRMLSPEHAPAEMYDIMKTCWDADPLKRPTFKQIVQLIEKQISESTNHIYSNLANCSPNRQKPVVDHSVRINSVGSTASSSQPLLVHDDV
# Chain of UniProt P36897 (whole entry, looked up): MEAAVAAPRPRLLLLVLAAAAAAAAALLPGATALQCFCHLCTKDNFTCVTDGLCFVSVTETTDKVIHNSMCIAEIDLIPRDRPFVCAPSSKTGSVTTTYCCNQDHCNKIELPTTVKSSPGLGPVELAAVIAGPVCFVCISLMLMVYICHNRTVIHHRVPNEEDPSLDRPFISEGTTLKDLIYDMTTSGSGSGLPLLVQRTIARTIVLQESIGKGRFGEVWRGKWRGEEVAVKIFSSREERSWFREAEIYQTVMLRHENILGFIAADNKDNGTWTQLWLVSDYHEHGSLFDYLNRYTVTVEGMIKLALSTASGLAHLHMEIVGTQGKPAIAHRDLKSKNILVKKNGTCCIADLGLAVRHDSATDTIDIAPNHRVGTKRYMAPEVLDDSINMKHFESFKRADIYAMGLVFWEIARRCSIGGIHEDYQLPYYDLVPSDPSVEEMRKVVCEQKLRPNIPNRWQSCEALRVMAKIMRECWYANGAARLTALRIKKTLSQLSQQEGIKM
# Chain of UniProt Q13153 (whole entry, looked up): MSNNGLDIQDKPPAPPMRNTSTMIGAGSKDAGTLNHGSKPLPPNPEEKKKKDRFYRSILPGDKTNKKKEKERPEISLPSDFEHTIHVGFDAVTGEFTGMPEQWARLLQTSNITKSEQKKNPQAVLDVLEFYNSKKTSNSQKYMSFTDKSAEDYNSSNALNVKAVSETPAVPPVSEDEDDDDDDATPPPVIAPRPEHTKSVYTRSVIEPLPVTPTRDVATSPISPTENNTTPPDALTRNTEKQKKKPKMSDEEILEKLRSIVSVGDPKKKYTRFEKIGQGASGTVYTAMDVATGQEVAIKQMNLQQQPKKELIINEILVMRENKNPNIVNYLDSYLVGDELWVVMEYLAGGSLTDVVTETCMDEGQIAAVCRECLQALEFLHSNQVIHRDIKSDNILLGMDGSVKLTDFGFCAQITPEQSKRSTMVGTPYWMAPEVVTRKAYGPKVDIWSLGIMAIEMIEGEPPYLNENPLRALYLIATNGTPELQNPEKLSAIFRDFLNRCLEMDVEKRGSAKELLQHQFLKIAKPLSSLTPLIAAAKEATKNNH
# Chain of UniProt Q9H0K1 (whole entry, looked up): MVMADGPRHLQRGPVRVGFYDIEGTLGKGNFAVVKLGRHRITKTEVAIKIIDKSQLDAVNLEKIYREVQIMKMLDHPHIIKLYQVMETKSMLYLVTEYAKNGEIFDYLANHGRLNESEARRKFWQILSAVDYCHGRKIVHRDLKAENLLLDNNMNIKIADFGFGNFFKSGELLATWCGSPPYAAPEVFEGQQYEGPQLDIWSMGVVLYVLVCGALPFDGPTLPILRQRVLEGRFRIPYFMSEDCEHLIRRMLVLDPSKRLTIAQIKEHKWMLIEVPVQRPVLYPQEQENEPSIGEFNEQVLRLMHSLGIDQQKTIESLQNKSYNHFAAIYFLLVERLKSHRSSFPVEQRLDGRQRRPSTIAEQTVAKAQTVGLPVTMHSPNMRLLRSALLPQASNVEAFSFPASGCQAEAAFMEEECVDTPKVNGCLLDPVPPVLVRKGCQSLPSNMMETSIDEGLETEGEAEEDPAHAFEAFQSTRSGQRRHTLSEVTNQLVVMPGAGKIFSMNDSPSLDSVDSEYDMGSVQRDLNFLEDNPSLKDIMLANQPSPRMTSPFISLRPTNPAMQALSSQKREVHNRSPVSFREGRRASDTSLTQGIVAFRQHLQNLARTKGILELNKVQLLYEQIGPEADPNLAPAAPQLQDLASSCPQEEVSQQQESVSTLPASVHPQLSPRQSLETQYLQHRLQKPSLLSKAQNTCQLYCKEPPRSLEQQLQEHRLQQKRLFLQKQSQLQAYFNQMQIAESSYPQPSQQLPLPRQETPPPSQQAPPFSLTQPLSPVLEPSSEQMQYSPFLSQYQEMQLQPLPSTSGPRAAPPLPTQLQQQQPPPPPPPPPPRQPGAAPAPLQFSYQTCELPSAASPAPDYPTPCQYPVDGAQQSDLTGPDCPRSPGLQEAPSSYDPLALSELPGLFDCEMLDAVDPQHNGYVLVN
# Chain of UniProt Q04759 (whole entry, looked up): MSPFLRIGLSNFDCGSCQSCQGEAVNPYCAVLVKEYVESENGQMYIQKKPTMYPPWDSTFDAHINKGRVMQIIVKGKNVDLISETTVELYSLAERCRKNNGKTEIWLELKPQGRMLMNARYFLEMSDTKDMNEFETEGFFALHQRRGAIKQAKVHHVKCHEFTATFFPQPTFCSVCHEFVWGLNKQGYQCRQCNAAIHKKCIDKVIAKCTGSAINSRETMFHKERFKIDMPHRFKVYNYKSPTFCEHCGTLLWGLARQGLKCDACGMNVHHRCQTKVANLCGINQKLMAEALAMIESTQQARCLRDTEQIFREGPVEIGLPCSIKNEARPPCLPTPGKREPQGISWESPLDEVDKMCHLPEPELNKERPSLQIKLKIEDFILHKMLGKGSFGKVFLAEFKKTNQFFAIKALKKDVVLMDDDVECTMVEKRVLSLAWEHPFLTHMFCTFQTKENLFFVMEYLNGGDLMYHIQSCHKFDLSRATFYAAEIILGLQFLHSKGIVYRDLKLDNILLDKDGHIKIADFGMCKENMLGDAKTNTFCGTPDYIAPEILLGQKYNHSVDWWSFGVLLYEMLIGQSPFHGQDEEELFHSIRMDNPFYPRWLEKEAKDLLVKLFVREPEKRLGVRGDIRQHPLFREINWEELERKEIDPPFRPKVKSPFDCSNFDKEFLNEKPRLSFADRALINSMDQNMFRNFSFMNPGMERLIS
# Chain of UniProt Q8N5S9 (whole entry, looked up): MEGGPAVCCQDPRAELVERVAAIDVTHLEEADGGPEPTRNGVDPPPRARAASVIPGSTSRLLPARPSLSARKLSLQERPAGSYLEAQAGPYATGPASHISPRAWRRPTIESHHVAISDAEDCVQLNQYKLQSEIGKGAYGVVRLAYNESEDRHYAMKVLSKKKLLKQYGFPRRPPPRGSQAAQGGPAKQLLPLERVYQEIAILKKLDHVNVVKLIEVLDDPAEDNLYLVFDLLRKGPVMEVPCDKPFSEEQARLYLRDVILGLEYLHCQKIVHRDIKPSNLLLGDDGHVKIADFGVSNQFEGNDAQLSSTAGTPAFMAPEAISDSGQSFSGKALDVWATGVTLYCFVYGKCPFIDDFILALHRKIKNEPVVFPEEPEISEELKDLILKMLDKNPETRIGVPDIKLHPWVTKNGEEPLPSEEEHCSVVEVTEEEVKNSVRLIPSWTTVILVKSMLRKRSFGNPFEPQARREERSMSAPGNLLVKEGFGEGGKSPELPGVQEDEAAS
# Chain of UniProt Q15569 (whole entry, looked up): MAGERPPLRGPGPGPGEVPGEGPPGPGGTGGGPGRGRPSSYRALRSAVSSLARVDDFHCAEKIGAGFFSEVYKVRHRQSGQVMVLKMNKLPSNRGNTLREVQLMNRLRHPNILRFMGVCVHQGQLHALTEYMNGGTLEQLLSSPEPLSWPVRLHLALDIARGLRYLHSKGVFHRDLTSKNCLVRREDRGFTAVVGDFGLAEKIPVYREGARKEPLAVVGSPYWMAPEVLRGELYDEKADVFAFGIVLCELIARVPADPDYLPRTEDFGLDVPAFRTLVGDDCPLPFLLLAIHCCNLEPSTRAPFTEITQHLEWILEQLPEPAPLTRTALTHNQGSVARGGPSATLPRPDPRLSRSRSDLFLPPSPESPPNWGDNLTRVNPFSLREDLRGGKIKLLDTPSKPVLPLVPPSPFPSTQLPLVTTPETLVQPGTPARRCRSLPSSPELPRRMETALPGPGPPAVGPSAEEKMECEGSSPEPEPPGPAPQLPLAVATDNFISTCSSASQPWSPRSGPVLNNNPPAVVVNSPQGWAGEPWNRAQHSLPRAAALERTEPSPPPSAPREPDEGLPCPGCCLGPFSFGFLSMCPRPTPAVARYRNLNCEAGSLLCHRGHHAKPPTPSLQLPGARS

# Series 1
# SMILES: FC(F)(F)c1ccc(/C=C/c2nc(COc3ccc(CCCCn4ccnn4)cc3)co2)cc1
# Observed: enzyme activity
# Action: inhibitor
# Concentration: 0.5 µM
# Reference: control
target,remaining activity [%]
"Serine/threonine-protein kinase PAK 1 (PAK1, Homo sapiens, UniProt Q13153)",104
"Ribosomal protein S6 kinase alpha-3 (RPS6KA3, Homo sapiens, UniProt P51812)",96.8
"Muscle, skeletal receptor tyrosine-protein kinase (MUSK, Homo sapiens, UniProt O15146)",104
"Serine/threonine-protein kinase SIK2 (SIK2, Homo sapiens, UniProt Q9H0K1)",103
"Dual specificity protein kinase CLK1 (CLK1, Homo sapiens, UniProt P49759)",101
"Cyclin-dependent kinase 2, with cyclin E (CDK2, Homo sapiens, UniProt P24941)",96.3
"Casein kinase I isoform epsilon (CSNK1E, Homo sapiens, UniProt P49674)",95.5
"Tyrosine-protein kinase JAK1 (JAK1, Homo sapiens, UniProt P23458)",103
"Calcium/calmodulin-dependent protein kinase kinase 1 (CAMKK1, Homo sapiens, UniProt Q8N5S9)",96.7
"Mitogen-activated protein kinase kinase kinase 20 (MAP3K20, Homo sapiens, UniProt Q9NYL2)",98.5
"Ephrin type-A receptor 2 (EPHA2, Homo sapiens, UniProt P29317)",102
"Protein kinase C theta type (PRKCQ, Homo sapiens, UniProt Q04759)",99.9

# Series 2
# Structure (SMILES): C[C@@H]1CN(c2ccc(-c3cc(C(=O)NCCOCCOCCOCCOCCNC(=O)Cn4cc(-c5[nH]cc(C(=O)N[C@@H](CC(N)=O)c6ccc(F)c(Cl)c6)c5-c5ccc(Cl)cc5F)cn4)ccc3F)cc2NC(=O)c2c[nH]c(=O)cc2C(F)(F)F)C[C@H](C)N1C
# Method: ATPlite
cell line,system,conditions,how to read,viability
MV4-11,,"1 µM, 5 days",reference: DMSO,67.3% and 54.7% and 79.7%
MV4-11 expressing HiBiT-WDR5,RPMI with 10% FBS,"585 nM, 24 h",,97.4% and 104% and 117%
MV4-11,,"4.64 µM, 5 days",reference: DMSO,42.3% and 35.9% and 27.8%
MV4-11,,"0.1 µM, 5 days",reference: DMSO,64.6% and 85.3% and 78.1%
MV4-11 expressing HiBiT-WDR5,RPMI with 10% FBS,"88.1 nM, 24 h",,90.7% and 111% and 93.7%
MV4-11 expressing HiBiT-WDR5,RPMI with 10% FBS,"227 nM, 24 h",,119% and 139% and 117%

# Series 3
# Structure (SMILES): CC(C)(C(=O)O)[C@H](NC(=O)Cc1cccc(I)c1)c1ccc2oc(=O)[nH]c2c1
# Method: Incucyte 3D growth
# Concentration: 30 µM
# Reading: higher = more growth
cell line,conditions,spheroid area
IPC-298,114 h,2.67e+07 a.u. and 2.76e+07 a.u. and 3.22e+07 a.u. and 2.14e+07 a.u. and 2.6e+07 a.u. and 2.88e+07 a.u.
IPC-298,240 h,3.78e+07 a.u. and 4.43e+07 a.u. and 2.68e+07 a.u. and 3.04e+07 a.u. and 3.24e+07 a.u. and 2.73e+07 a.u.
PC-9,132 h,9.72e+08 a.u. and 1.04e+09 a.u. and 1.03e+09 a.u. and 9.61e+08 a.u. and 1e+09 a.u. and 1.01e+09 a.u.
A375,84.52 h,5.11e+07 a.u. and 5.33e+07 a.u. and 4.11e+07 a.u. and 4.97e+07 a.u. and 6.31e+07 a.u. and 4.96e+07 a.u.
A375,420.52 h,1.81e+08 a.u. and 1.49e+08 a.u. and 1.65e+08 a.u. and 1.72e+08 a.u. and 1.78e+08 a.u. and 1.59e+08 a.u.
A375,186.52 h,1.39e+08 a.u. and 1.21e+08 a.u. and 1.49e+08 a.u. and 1.29e+08 a.u. and 1.37e+08 a.u.

# Series 4
# SMILES: N#Cc1ccc(Nc2ccc3[nH]c(=O)[nH]c3c2)c(Cl)c1
# Method: competition with immobilised ligand
# Concentration: 1 µM
target,test,remaining binding
"Cyclin-dependent kinase-like 5 (CDKL5, Homo sapiens, UniProt O76039)",binding,100%
"STE20-like serine/threonine-protein kinase (SLK, Homo sapiens, UniProt Q9H2G2)",cell-free assay,100%
"TGF-beta receptor type-1 (TGFBR1, Homo sapiens, UniProt P36897)",cell-free assay,100%
"Calcium/calmodulin-dependent protein kinase type II subunit gamma (CAMK2G, Homo sapiens, UniProt Q13555)",cell-free assay,78%
"Protein kinase C epsilon type (PRKCE, Homo sapiens, UniProt Q02156)",cell-free assay,100%
"Dual specificity testis-specific protein kinase 1 (TESK1, Homo sapiens, UniProt Q15569)",cell-free assay,100%
"NT-3 growth factor receptor (NTRK3, Homo sapiens, UniProt Q16288)",cell-free assay,100%
"Receptor-type tyrosine-protein kinase FLT3 (FLT3, Homo sapiens, UniProt P36888, F691L/ITD)",cell-free assay,100%
"Mast/stem cell growth factor receptor Kit, autoinhibited (KIT, Homo sapiens, UniProt P10721)",cell-free assay,100%

# Excerpt of the above (series 4):
target,test,remaining binding
"STE20-like serine/threonine-protein kinase (SLK, Homo sapiens, UniProt Q9H2G2)",cell-free assay,100%
"TGF-beta receptor type-1 (TGFBR1, Homo sapiens, UniProt P36897)",cell-free assay,100%
"Calcium/calmodulin-dependent protein kinase type II subunit gamma (CAMK2G, Homo sapiens, UniProt Q13555)",cell-free assay,78%
"Protein kinase C epsilon type (PRKCE, Homo sapiens, UniProt Q02156)",cell-free assay,100%
"Dual specificity testis-specific protein kinase 1 (TESK1, Homo sapiens, UniProt Q15569)",cell-free assay,100%
